{"data": "Results collected from several papers", "note": "Every numbered part comes from another study and shows a few of its results, in no order. Substitutions count along the parent as printed."}
{"data": "Block 1", "target": "RNA binding protein fox-1 homolog 2, RRM domain, GST-SBP tag (RBFOX2, Homo sapiens, UniProt O43251-10, residues 100-194)", "technique": "RNA Bind-n-Seq", "form": "RNA", "medium": "in vitro", "tested at": "365 nM", "notes": "natural RNA segment, single round, ends assumed", "reference": "no-protein control", "reading": "higher = stronger binding", "constant ends, left off below": "GGGAGUUCUACAGUCCGACGAUC … UGGAAUUCUCGGGUGCCAA", "Target sequence (chain)": "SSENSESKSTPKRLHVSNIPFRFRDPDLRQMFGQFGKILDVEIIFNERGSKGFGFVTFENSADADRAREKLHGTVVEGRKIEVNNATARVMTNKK"}
{"Strand": "GCUGAGGUUCCUCCAAGCAACCACCUUCUCCAGGCCCCUGGGGUGUUGAAAGUCAAAUGUGGCUGUUGAGUCCACAGACCCCCAUCCUAAUUCCUGCACCUGGAGGAGUU", "RBNS enrichment (R)": 0.458}
{"Strand": "CCUGGCAGAGCGCCCCUGGCGCCUGAGACUACCACCCACUCCGUUCCUGCCAGAAACGACCCUCUGUGGCCGAUGGGCCAUGCGGGCCCCUCGCAGCCAACUCAGCCAGU", "RBNS enrichment (R)": 0.265}
{"Strand": "UAGCCACUGGCCAAGACUUGCUGACCUUCUAUUUUUUCUAAUUUUCCUUAAUAAACAGAUUCAUUUAGUUAUUUCAUAUAGGCAUCAAUAUGCAUUUAGCUUUAGUUUAC", "RBNS enrichment (R)": 1.2}
{"Strand": "CCUGACAGCCCACGGCGGGUACACUGAGCAGCUGCAUUGGUGCUGUCACUUUUUUAAGGCUUUCUGUCCAGACUUCAACACUGGUUUCUUUUCAGAGUUUCGAAGGAUUA", "RBNS enrichment (R)": 0.32}
{"Strand": "GCCACAGCCAUAGUGACUGCAUGAGCCAUCUGAACCUGCAGUCCACCCUCCCUGGAACCACACCAGAAAGAGACCUGGGUUGUCGUUUUCUUGCUUUUUGUUUUGUUUUG", "RBNS enrichment (R)": 2.39}
{"Strand": "AACCAAGAUGUAAAACAAGAAAUGCUUUGAGGCUUUCUAAGCGAUCCUCCUGUCUAAUUUGCACCUUUGUCUGGAUGCACACUUCUGACCUUGCUGCCACAACCUGUGGG", "RBNS enrichment (R)": 0.359}
{"Strand": "GAACUCAUGGAUGCAGACUCGGACUUCUGGCCUGCAGAGCAGGACCUGGGACAGGAAAGAGAGGAACCAAUACCUUCAAGGCUCUUCUUCCUCACCGAGCAUGCUUCCCU", "RBNS enrichment (R)": 5.27}
{"Strand": "CUCCUGAUCCUGACCUCUGCAGCCUCUUUAACUGCCCCUCCUAUGGCCCCUGCCCUUCUCUUUCUCCCAGAUGGAUCCUUCCAGCAGAGAAAUAAAGCCUUAUCCAUUAC", "RBNS enrichment (R)": 0.379}
{"Strand": "UUAUUUUCAAAUAAAAAAUAGUUUGGCCACUUAACAAAUUUGAUUUAUAAAUCUUUCAAAUUAGUUCCUUUUUAGAAUUUACCAACAGGUUCAAAGCAUACUUUUCAUGA", "RBNS enrichment (R)": 1.4}
{"Strand": "AGGGAACUUUGAUCUUCCUAAGAAUUAAAGUUGCCAAAUUAUUCUGAUUGGUCUUUAAUCUCCUUUAAGUCUUUGAUAUAUAUUACUUGUUAUAAAUGGAACGCAUUAGU", "RBNS enrichment (R)": 3.42}
{"Strand": "UGAUUUGAAUGUUGAUACUUUUUUUUCCUUUACAUUUCCAGUAAGUUUCUUACAGAAAGUACCUGUGAUUUUUUUUAAUGUUUAGAUUUGUAGUCUAGUCUAUUCUGAAG", "RBNS enrichment (R)": 0.458}
{"Strand": "GUAGUUCACUCAGCCUUGAUUGUACUGCAAGGGCGAGACAAAAAUAAACGGGAAACGUGCUGUUCAACAUGUGACUUAUUUUUAAACUUCUAAACCCCAAACCUAGAGCU", "RBNS enrichment (R)": 0.378}
{"data": "Block 2", "target": "Fragile X messenger ribonucleoprotein 1, C-terminal low-complexity region (Fmr1, Mus musculus, UniProt P35922)", "technique": "RNA Bind-n-Seq", "form": "RNA", "medium": "in vitro", "tested at": "200 nM", "notes": "whole 134-nt RNA, ends assumed", "added": "150 mM LiCl", "reference": "input library", "reading": "higher = stronger binding", "library": "7-deaza-guanosine replaces G", "constant ends, left off below": "GGGAGUUCUACAGUCCGACGAUC … UGGAAUUCUCGGGUGUCAAGG"}
{"Strand": "CACAGACAACACGCACCCAGACAGACACAGAGGGAAGGGGUUGGGAUGGGGACAGGGUGCACAGCAGGGCGGGGUAGGACCCCAGCCCCU", "log2 enrichment": 0.491}
{"Strand": "UCAAGUCCUGUGCUACACAUCGUAUGUACCGAAUCGGUGGUUUUUUUGGAAAGGAAAGUAUUAUGUUACGCCGUUCGGAUCUGCACUUCC", "log2 enrichment": -0.723}
{"Strand": "UGUCAGGAUUAUGAAGAAGCUGUGCUCUUGCUGUUAGAAGGAGCUGCCUGGGAAGAAGCUUUGAGGCUGGUAAGAAUCUUGUAAAUCCUC", "log2 enrichment": -1.29}
{"Strand": "UCAAGUCCUGUGCUACACAUCGUAUGUACCGAAUCGGGGUUUGGUUUGGUUUGGAAAGUAUUAUGUUACGCCGUUCGGAUCUGCACUUCC", "log2 enrichment": -0.87}
{"Strand": "UUCCCCACUUCCUUCCCUCCAGUCCCCACUCACUCACAUGCACACACUAACCUUGGAGCCGAUGGGAUUGAGUGACUGGCACUUGGGACC", "log2 enrichment": 1.66}
{"Strand": "AGUCCUGUGCUACACAUCGUAUGUACCGAAUCGGGUUUUUGGUUUUUGGUUUUUGGGAAAGUAUUAUGUUACGCCGUUCGGAUCUGCACU", "log2 enrichment": -2.06}
{"Strand": "AGUCCUGUGCUACACAUCGUAUGUACCGAAUCGGGGAAAAGGGAAAAGGGAAAAGGGAAAGUAUUAUGUUACGCCGUUCGGAUCUGCACU", "log2 enrichment": -0.72}
{"Strand": "UCCUGUGCUACACAUCGUAUGUACCGAAUCAAACCCCCCCAAAUUUUUUUAAACCCAAAAAAGUAUUAUGUUACGCCGUUCGGAUCUGCA", "log2 enrichment": 1.82}
{"Strand": "AGUCCUGUGCUACACAUCGUAUGUACCGAAUCGGGGUUUGGGGUGGGGUUUUUGGGGAAAGUAUUAUGUUACGCCGUUCGGAUCUGCACU", "log2 enrichment": -0.639}
{"Strand": "ACUGAUGAGAGCCUGAGGAGCCAUUUUGAGCAAUGGGGAACGCUCACGGACUGUGUGGUAAGAUUUGGAAGGGACAAAGCAGUAAAACAG", "log2 enrichment": 0.634}
{"Strand": "UAACUUUAGAGGAGGAUCUGAUGGAUAUGGCAGUGCACGUGGAUUUGGGGAUGGCUAUAAUGGGUAUGGAGGAGGACCUGGAGGUGGCAA", "log2 enrichment": 0.413}
{"data": "Block 3", "target": "Prothrombin, mature alpha-thrombin (F2, Homo sapiens, UniProt P00734)", "technique": "aptamer microarray, sandwich", "form": "DNA with 2'F-ANA", "medium": "in vitro", "tested at": "200 nM", "notes": "whole 15-mer aptamer, many near background", "added": "Cy3 exosite-II aptamer, 400 nM", "reading": "higher = stronger binding", "strand": "GGTTGGTGTGGTTGG"}
{"Modification": "2'F-ANA at 2 4 5 8 12", "mean fluorescence intensity": "152 a.u."}
{"Modification": "2'F-ANA at 1 8 9 13 15", "mean fluorescence intensity": "168 a.u."}
{"Modification": "2'F-ANA at 1 4 5 6 9 11 12", "mean fluorescence intensity": "87.7 a.u."}
{"Modification": "2'F-ANA at 1 4 6 7 9 11 12 14", "mean fluorescence intensity": "52.8 a.u."}
{"Modification": "2'F-ANA at 2 5 6 7 8 9 10 12", "mean fluorescence intensity": "89.3 a.u."}
{"Modification": "2'F-ANA at 2 4 7 9 11 12 13 14", "mean fluorescence intensity": "102 a.u."}
{"Modification": "2'F-ANA at 1 5 6 10 12 13", "mean fluorescence intensity": "46.8 a.u."}
{"Modification": "2'F-ANA at 4 6 8 10 11 12 13 15", "mean fluorescence intensity": "76.1 a.u."}
{"Modification": "2'F-ANA at 2 3 4 5 7 9 11 13 14 15", "mean fluorescence intensity": "49.4 a.u."}
{"Modification": "2'F-ANA at 6 7 9 10 11 12 13", "mean fluorescence intensity": "194 a.u."}
{"Modification": "2'F-ANA at 1 2 3 4 5 6 7 12 13 14 15", "mean fluorescence intensity": "68.4 a.u."}
{"Modification": "2'F-ANA at 2 3 4 5 7 8 9 11 12", "mean fluorescence intensity": "174 a.u."}
{"Modification": "2'F-ANA at 3 4 5 7 14", "mean fluorescence intensity": "61 a.u."}
{"Modification": "2'F-ANA at 2 3 6 7 10 11 12 13 15", "mean fluorescence intensity": "324 a.u."}
{"Modification": "2'F-ANA at 1 3 5 7 8 10 11 14", "mean fluorescence intensity": "45.7 a.u."}
{"Modification": "2'F-ANA at 2 3 6 7 12", "mean fluorescence intensity": "1060 a.u."}
{"Modification": "2'F-ANA at 2 3 4 6 7 8 9 11 12 15", "mean fluorescence intensity": "657 a.u."}
{"Modification": "2'F-ANA at 3 4 5 6 7 8 9 11", "mean fluorescence intensity": "82.5 a.u."}
{"Modification": "2'F-ANA at 2 4 7 9 13", "mean fluorescence intensity": "196 a.u."}
{"Modification": "2'F-ANA at 3 5 7 8 9 10 12 15", "mean fluorescence intensity": "73.1 a.u."}
{"Modification": "2'F-ANA at 4 7 8 12 13 15", "mean fluorescence intensity": "464 a.u."}
{"Modification": "2'F-ANA at 1 2 6 8 9 14 15", "mean fluorescence intensity": "57.8 a.u."}
{"Modification": "2'F-ANA at 1 2 8 10 11 12 13 15", "mean fluorescence intensity": "269 a.u."}
{"Modification": "2'F-ANA at 4 6 7 10 11 14", "mean fluorescence intensity": "58.2 a.u."}
{"Modification": "2'F-ANA at 1 2 3 4 6 8 11 12 13 14 15", "mean fluorescence intensity": "69.2 a.u."}
{"data": "Block 4", "target": "ABI1, truncated, D143A, DHFR fusion (Arabidopsis thaliana)", "technique": "DHFR PCA, deep sequencing", "medium": "yeast", "notes": "methotrexate growth selection, single substitutions", "added": "(+)-ABA 0.0091 µM", "reference": "wild-type fitted maximum", "reading": "higher = stronger binding", "parent": "PYL1, truncated, DHFR fusion (Arabidopsis thaliana); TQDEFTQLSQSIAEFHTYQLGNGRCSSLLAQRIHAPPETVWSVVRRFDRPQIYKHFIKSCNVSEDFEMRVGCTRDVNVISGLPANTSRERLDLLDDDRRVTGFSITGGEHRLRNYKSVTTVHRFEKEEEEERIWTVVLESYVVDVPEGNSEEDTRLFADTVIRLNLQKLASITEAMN"}
{"Change": "V43S", "relative binding score": "0.262%"}
{"Change": "L138H", "relative binding score": "6.02%"}
{"Change": "S26Y", "relative binding score": "5.16%"}
{"Change": "L94H", "relative binding score": "12.3%"}
{"Change": "T6I", "relative binding score": "40.4%"}
{"Change": "T154V", "relative binding score": "42.6%"}
{"Change": "T101A", "relative binding score": "0.742%"}
{"Change": "E89S", "relative binding score": "1.69%"}
{"Change": "R111M", "relative binding score": "11%"}
{"Change": "E125S", "relative binding score": "47.7%"}
{"Change": "T86W", "relative binding score": "75.4%"}
{"Change": "D97F", "relative binding score": "2.94%"}
{"Change": "D159Y", "relative binding score": "5.37%"}
{"Change": "E147M", "relative binding score": "8.7%"}
{"Change": "A158H", "relative binding score": "36.3%"}
{"Change": "V100N", "relative binding score": "-13.5%"}
{"Change": "F66R", "relative binding score": "3.55%"}
{"Change": "D159N", "relative binding score": "14.8%"}
{"Change": "L112Q", "relative binding score": "2.93%"}
{"Change": "V136C", "relative binding score": "-3.11%"}
{"Change": "D92C", "relative binding score": "6.6%"}
{"Change": "H34E", "relative binding score": "40.7%"}
{"note": "Excerpt of the above (block 3):"}
{"Modification": "2'F-ANA at 1 3 5 7 8 10 11 14", "mean fluorescence intensity": "45.7 a.u."}
{"Modification": "2'F-ANA at 2 3 6 7 12", "mean fluorescence intensity": "1060 a.u."}
{"Modification": "2'F-ANA at 2 3 4 6 7 8 9 11 12 15", "mean fluorescence intensity": "657 a.u."}
{"Modification": "2'F-ANA at 3 4 5 6 7 8 9 11", "mean fluorescence intensity": "82.5 a.u."}
{"Modification": "2'F-ANA at 2 4 7 9 13", "mean fluorescence intensity": "196 a.u."}
{"Modification": "2'F-ANA at 3 5 7 8 9 10 12 15", "mean fluorescence intensity": "73.1 a.u."}
{"Modification": "2'F-ANA at 4 7 8 12 13 15", "mean fluorescence intensity": "464 a.u."}
